Experimental data of several laboratories.
Numbers after ± are the reported error.

| SMILES | test | test system | conditions | how to read | quantity | value |
| --- | --- | --- | --- | --- | --- | --- |
| CCOC(=O)N1C[C@@H]([C@H](C)CC)N[C@@H](C(C)C)C1 | shake-flask, LC-HRMS | aqueous buffer | 16 h, pH 6.8 |  | solubility | > 750 µM |
| Cc1c(C(=O)O)ccc2c3n(nc12)[C@@H]1[C@H](C3)N(CC2CC2)[C@@]2(C(=O)Nc3cc(Cl)ccc32)[C@H]1c1cccc(Cl)c1F |  | human patients phase Ia | oral, dose not given, all grades, all patients |  | decreased weight incidence | 9.3% |
| CCN1CCN(Cc2ccc(NC(=O)c3ccc(C)c(NC(=O)c4cncc(-c5cccs5)c4)c3)cc2C(F)(F)F)CC1 | LC-MS/MS | C57BL/6 mouse, plasma | intraperitoneal, 20 mg/kg single dose, 2 h |  | mean plasma concentration | 310 ng/mL |
| Cl.NCCCCCCN1C(=O)/C(=C2/C(=O)N(Cc3ccc(F)cc3)c3ccccc32)SC1=S | HPLC | 50 mM phosphate buffer | 10 µM, 48 h, pH 7 |  | concentration decrease | ~42% |
| NC1(C(=O)N[C@@H](CCO)c2ccc(Cl)cc2)CCN(c2nc[nH]c3nccc2-3)CC1 |  | metastatic CRPC patients | 400 mg b.i.d., grade 3 to 4, treatment-related, together with: enzalutamide 160 mg daily |  | incidence of blood creatinine increased | 0% |
| CCOC(=O)N1C[C@@H](c2ccc(O)cc2)N[C@@H](C(C)C)C1 | shake-flask, LC-HRMS | aqueous buffer | 16 h, pH 6.8 |  | solubility | > 750 µM |
| COc1ccc([C@@H](O)c2cc(-c3ncnc4cc(N5CCOCC5)ccc34)c(F)cc2Cl)nn1 |  | locally advanced rectal cancer patients | 250 mg, together with: capecitabine and radiotherapy |  | lymphocyte count decrease TEAE | 50% |
| Cc1cc(-c2nccc3c2ccn3CC(=O)Nc2ccc(-c3cnccn3)cn2)ccn1 |  | human | MAD part, 5 mg once daily |  | subjects with any grade 3 TEAE | 0% |
| CC(=O)O[C@H]1C(=O)[C@@]2(C)[C@H]([C@H](OC(=O)c3ccccc3)[C@]3(O)C[C@H](OC(=O)[C@H](O)[C@@H](NC(=O)c4ccccc4)c4ccccc4)C(C)=C1C3(C)C)[C@]1(OC(C)=O)CO[C@@H]1C[C@@H]2O |  | patients with advanced solid tumours | intravenous, dose not given, phase Ib, not related to compound |  | adverse events, any | 6% |
| OC[C@H]1O[C@@H](c2ccc(F)c(Cc3cc4ccccc4s3)c2)[C@H](O)[C@@H](O)[C@@H]1O |  | Japanese patients, type 1 diabetes | oral, 100 mg/day, onset day 9 | reference: patients | hypoglycaemia-related adverse event | 2% |
| O=c1[nH]c(=O)n([C@@H]2O[C@H](CO)[C@@H](O)[C@@H]2F)cc1CCCC[18F] |  | nude mice, RG2 tumour, kidney | intravenous, dose not given, 2 h |  | biodistribution | 0.33 ± 0.11 %ID/g |
| Nc1cccc2ccc(/C=C/C(=O)c3ccc(O)cc3)cc12 |  | toluene | 20 °C |  | Stokes shift | 137 nm |
| C[Si](C)(C)O[Si](C)(C)C |  | 1-octanol/air | 25 °C |  | log KOA | 2.89 |
| CCN1/C(=C/C(C)=O)Sc2ccc(F)cc21 |  | cynomolgus monkey | oral, 100 mg/kg, 24 h post-dose | reference: pre-dose | PR interval change | 97.8 ± 5.4% |
| Cc1[nH]c(C)c(S(=O)(=O)Nc2ccc(C(F)(F)F)c(Cl)c2)c1C(=O)N1CCC(F)(F)C1 |  | mouse, brain | intraperitoneal, 40 mg/kg |  | AUC(0-t) | 17600 ng·h/g |
| CC(=O)O[C@@]12CO[C@@H]1C[C@H](O)[C@@]1(C)C(=O)[C@H](O)C3=C(C)[C@@H](OC(=O)[C@H](O)[C@@H](NC(=O)OC(C)(C)C)c4ccccc4)C[C@@](O)([C@@H](OC(=O)c4ccccc4)[C@H]21)C3(C)C |  | SNEDDS preconcentrate | 24 h |  | equilibrium solubility | 15.3 ± 2.16 mg/g |
| O=c1[nH]c(=O)n([C@H]2C[C@H](O)[C@@H](CO)O2)cc1CCC[18F] |  | male CD-1 nu/nu mice, RG2 tumour, kidney | intravenous, dose not given, 2 h |  | biodistribution | 0.48 ± 0.24 %ID/g |
| O=C(CCCCCCC(=O)Nc1ccc(CC[18F])cc1)NO |  | athymic nu/nu male mice, LNCaP xenograft, heart | intravenous, 2 h |  | tissue uptake | 1 ± 0.7 %ID/g |
| Cc1cc([C@H]2C[C@H]3[C@@H](C)SC(N)=N[C@@]3(c3ccc(F)cc3F)CO2)on1 |  | male 129/SVE mouse, CSF | subcutaneous, 50 mg/kg, 7 h |  | CSF concentration | 19 nM |
| CCCCOC(=O)N1CCN(C(=O)[C@H](CP(=O)(O)O)NC(=O)c2cc(N3CC[C@H](OC)C3)nc(-c3ccccc3)n2)CC1 |  | human | subcutaneous, 16 mg, 1 h post-dose | reference: baseline | change in QTcB interval | -3.2 ± 15 ms |
| CNC(=O)c1cc(Oc2ccc(NC(=O)Nc3cc(C(C)(C)C)nn3-c3ccc4ncccc4c3)c(F)c2)ccn1 | item: worst grade 2 | human | oral, dose not given, cycles 1 and 2, Medium Cmax subgroup |  | patients with musculoskeletal disorder AE | 13% |
| Cc1cc([C@H]2C[C@H]3[C@@H](CF)SC(N)=N[C@@]3(c3ccc(F)cc3F)CO2)on1 |  | 129/SVE wild-type mouse, male | subcutaneous, 100 mg/kg, 5 h |  | CSF concentration | 75 nM |
| Cn1cc(Nc2nccc(-c3ccc4c(c3)CN(C3COC3)CC[C@H]4NC(=O)c3cn(C(C)(C)C)nn3)n2)cn1 | item: CD3+ T cell count | human, clinical trial, whole blood | 150 mg twice daily, follow-up |  | percent change from baseline | 5.92% |
| COc1ccc2c(c1)CN(C(=O)CCN1CCC(Cc3ccccc3)CC1)CC[S@@+]2[O-] | telemetry | conscious male beagle dogs | intravenous, 4 mg/kg, 4 h |  | QRS duration | 34 ± 10 ms |

| SMILES | test | test system | conditions | how to read | quantity | value |
| --- | --- | --- | --- | --- | --- | --- |
| CNCc1ccc(-c2[nH]c3cc(F)cc4c3c2CCNC4=O)cc1 |  | human patients | oral, 840 mg twice daily, all grades |  | vomiting incidence | 66.7% |
| O=C(NO)c1ccc(CN(c2cnccn2)c2cnccn2)cc1 |  | human | oral, dose not given, at least one TEAE, all dose cohorts, sample B patients |  | patients with adverse event | 85% |
| CCC(CC)[C@H]1COC[C@@H](c2ccc(C(C)(C)C)cc2)N1 | shake-flask, LC-HRMS | aqueous buffer | 16 h, pH 6.8 |  | solubility | < 4 µM |
| O=C1NCCc2nc(OCc3cccc(F)c3)ccc21 | item: Catalepsy | Sprague-Dawley rat male | oral, 100 mg/kg, 0 min | reference: baseline, direction not given | Irwin test score | 0 |
| Cc1cc(NC2CCN(C(=O)OC3CCN(C(=O)/C=C/CN(C)C)C3)CC2)n2ncc(C(C)C)c2n1 (centres unmarked) |  | patients with advanced solid tumours | dose not given, QD arm, any grade |  | patients with Nausea | 28% |
| CNC(=O)c1ccc(-c2cnc3ncc(Cc4ccc5ncccc5c4)n3n2)cc1F | item: Dizziness | cancer patients | oral, 600 mg twice daily, all expansion cohorts, grade 3-4 |  | patients with adverse event | 0% |
| CCOC(=O)N1C[C@@H](c2cccc(Br)c2)N[C@@H](c2ccc(N3CCCC3)cc2)C1 | shake-flask, LC-HRMS | aqueous buffer | 16 h, pH 6.8 |  | solubility | < 4 µM |
| Cc1c(-c2ccc(N3CCc4cccc(C(=O)Nc5nc6ccccc6s5)c4C3)nc2C(=O)O)cnn1CC12CC3(C)CC(C)(C1)CC(OCCNCC[C@H](O)CO)(C3)C2 |  | beagle dog, male, anaesthetised | intravenous infusion, 0.3 mg/kg/min, 30 min | reference: vehicle | QRS duration change | 1 ms |
| Cc1cccc(CNC(=O)c2cn(CCNC(=O)c3ccccc3S)c3cc4c(cc3c2=O)OC(F)(F)O4)n1 |  | Sprague-Dawley rat, male, plasma | intravenous, 20 mg/kg of parent drug |  | MRT(0-inf) | 1.24 ± 0.12 h |
| CC(=O)N(C)C1CCN(c2cc(F)cc(NC(=O)c3cc4c(F)ccc(C)c4[nH]3)c2)C1 (centres unmarked) |  | CD1 mouse | oral, 50 mg/kg |  | AUC(0-inf) | 148 ng·h/mL |
| N#Cc1ccc2c(c1)[C@H]1CCCN(C(=O)c3ccc4[nH]cnc4c3)[C@H]1C2 |  | human, female | 10 mg, day 15 |  | DHEA-S level | 3.4 µmol/L |
| Cn1cc(Nc2nc(N)nc(-c3cccc(-n4ccc5cc(C6CC6)cc(F)c5c4=O)c3CO)n2)cn1 |  | healthy humans, fed | oral tablet, 300 mg twice daily (multiple dose), 14 (unit not given) | reference: subjects | vomiting incidence | 0% |
| CCCC1CCC(c2ccc(-c3ccc(F)c(F)c3)cc2)CC1 (centres unmarked) |  | Sprague-Dawley rat, female, placenta | 1000 ng/mL in perfusate, 50 (unit not given), middle dose, mixture of 21 LCMs |  | placental accumulation | 13.5 ± 17.6 ng/g |
| COc1ccccc1NC(=O)CSc1nnc(-c2ccc(F)cc2)n1C |  | aqueous buffer | pH 7.4 |  | solubility | 2.66 µg/mL |
| COc1cc(C(=O)N2CCC3(CC2)CC(=O)c2c(cnn2C(C)C)C3)cc(-c2ccc(C(=O)O)cc2)n1 |  | human, fasting serum | 100 mg once daily, day 13, adjusted geometric mean | reference: placebo | HDL cholesterol change from baseline | -13.2% |
| CCOC(=O)C1=C(CN2CCC[C@@H]2C(=O)Nc2ccc(B(O)O)cc2)NC(c2nccs2)=N[C@H]1c1ccc(F)cc1Br |  | ICR mouse, plasma | intravenous, 2 mg/kg |  | AUC(0-t) | 720 ± 105 ng·h/mL |
| O=C1Nc2ccc3ncsc3c2/C1=C/Nc1ccc2c(c1)CS(=O)(=O)C2 |  | aqueous buffer | pH 7.4 |  | solubility | < 2.74 µg/mL |
| CC(C)(C)c1ccc([C@@H]2COC[C@@H](c3ccc(Cl)cc3)N2)cc1 | shake-flask, LC-HRMS | aqueous buffer | 16 h, pH 6.8 |  | solubility | < 4 µM |
| CCCCc1ccc(C#Cc2ccc(OCC)cc2)cc1 |  | rat, placenta | 1000 ng/mL in perfusate, middle dose, mixture of 21 LCMs |  | placental accumulation | 11.1 ± 13.1 ng/g |
| CCOC(=O)N1C[C@@H](C2CCCCC2)N[C@@H](c2ccc(C(F)(F)F)cc2)C1 | shake-flask, LC-HRMS | aqueous buffer | 16 h, pH 6.8 |  | solubility | < 4 µM |
| CC(C)CCC[C@@H](C)[C@H]1CC[C@H]2[C@@H]3C(O)CC4=CC(=O)CC[C@]4(C)[C@H]3CC[C@]12C (some centres unmarked) |  | human, plasma | endogenous baseline diurnal |  | Cmin | 35 ± 9 nM |
| CCc1cc(C(=O)NC)c2nccc(N3CCc4c(cc(Cn5ccnc5)cc4-c4cn(C)nc4C(F)(F)F)C3=O)c2c1 |  | Sprague Dawley rats | oral, 100 mg/kg once daily, 7 days |  | serum CK activity | 98.5 ± 10.7 U/L |
| CC(C)C1=NCCc2ccc(NC(=O)c3cc(Br)c4cc(C(=N)N)ccc4c3)cc21 |  | aqueous buffer | pH 7.4 |  | solubility | 95.7 µg/mL |

A few entries again:
| SMILES | test | test system | conditions | how to read | quantity | value |
| --- | --- | --- | --- | --- | --- | --- |
| CCN1CCN(Cc2ccc(NC(=O)c3ccc(C)c(NC(=O)c4cncc(-c5cccs5)c4)c3)cc2C(F)(F)F)CC1 | LC-MS/MS | C57BL/6 mouse, plasma | intraperitoneal, 20 mg/kg single dose, 2 h |  | mean plasma concentration | 310 ng/mL |
| Cl.NCCCCCCN1C(=O)/C(=C2/C(=O)N(Cc3ccc(F)cc3)c3ccccc32)SC1=S | HPLC | 50 mM phosphate buffer | 10 µM, 48 h, pH 7 |  | concentration decrease | ~42% |
| NC1(C(=O)N[C@@H](CCO)c2ccc(Cl)cc2)CCN(c2nc[nH]c3nccc2-3)CC1 |  | metastatic CRPC patients | 400 mg b.i.d., grade 3 to 4, treatment-related, together with: enzalutamide 160 mg daily |  | incidence of blood creatinine increased | 0% |
| CCOC(=O)N1C[C@@H](c2ccc(O)cc2)N[C@@H](C(C)C)C1 | shake-flask, LC-HRMS | aqueous buffer | 16 h, pH 6.8 |  | solubility | > 750 µM |
